# Results pooled from the literature.
# A part holds a random share of what one study measured. Several values in a cell are separate wells, animals, samples, runs or records.
# UniProt P51451, sequence (whole entry, looked up): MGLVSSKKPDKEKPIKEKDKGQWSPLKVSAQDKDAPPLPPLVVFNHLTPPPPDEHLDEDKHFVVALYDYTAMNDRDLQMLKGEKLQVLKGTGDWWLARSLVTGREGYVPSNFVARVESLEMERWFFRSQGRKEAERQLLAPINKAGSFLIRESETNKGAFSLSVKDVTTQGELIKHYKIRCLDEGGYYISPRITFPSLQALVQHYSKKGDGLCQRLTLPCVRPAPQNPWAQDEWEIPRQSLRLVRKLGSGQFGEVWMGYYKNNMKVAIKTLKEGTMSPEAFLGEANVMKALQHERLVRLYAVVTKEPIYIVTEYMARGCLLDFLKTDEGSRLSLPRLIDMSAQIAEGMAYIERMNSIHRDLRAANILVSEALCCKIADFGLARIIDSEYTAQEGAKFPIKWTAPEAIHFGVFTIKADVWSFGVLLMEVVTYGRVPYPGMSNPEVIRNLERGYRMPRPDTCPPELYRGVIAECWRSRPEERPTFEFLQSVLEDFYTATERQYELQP
# UniProt Q86UE8, sequence (whole entry, looked up): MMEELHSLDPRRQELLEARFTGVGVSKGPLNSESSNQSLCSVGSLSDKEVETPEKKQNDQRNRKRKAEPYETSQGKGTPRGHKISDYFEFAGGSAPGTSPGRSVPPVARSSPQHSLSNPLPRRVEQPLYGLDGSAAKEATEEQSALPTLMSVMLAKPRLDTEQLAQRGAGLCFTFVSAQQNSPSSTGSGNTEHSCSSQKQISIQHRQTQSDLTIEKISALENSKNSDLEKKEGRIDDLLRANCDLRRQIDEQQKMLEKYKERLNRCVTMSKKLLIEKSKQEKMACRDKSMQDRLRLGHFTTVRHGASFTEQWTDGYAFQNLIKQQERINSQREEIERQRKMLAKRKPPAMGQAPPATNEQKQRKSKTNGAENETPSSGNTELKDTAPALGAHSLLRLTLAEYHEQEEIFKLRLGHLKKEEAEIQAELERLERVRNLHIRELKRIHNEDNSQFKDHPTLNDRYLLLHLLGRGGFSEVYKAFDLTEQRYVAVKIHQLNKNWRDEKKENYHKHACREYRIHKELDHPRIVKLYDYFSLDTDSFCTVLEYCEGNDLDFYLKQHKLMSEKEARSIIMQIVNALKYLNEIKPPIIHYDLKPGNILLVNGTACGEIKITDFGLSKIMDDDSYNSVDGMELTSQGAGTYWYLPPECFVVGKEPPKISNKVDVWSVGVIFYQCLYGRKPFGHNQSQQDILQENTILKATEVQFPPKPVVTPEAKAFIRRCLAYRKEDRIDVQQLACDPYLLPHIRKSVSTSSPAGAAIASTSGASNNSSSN

# Set 1
# SMILES: COc1ccc2c(c1)O[C@@H](c1ccc(OC)c(OC)c1)C[C@H]2NC(=O)C1(c2ccc3c(c2)OC(F)(F)O3)CC1
# Observed: cell-free assay
# Method: competition with immobilised ligand
# Tested at: 1 µM
target,remaining binding [%]
"SIK3 (Homo sapiens, UniProt Q9Y2K2)",82
"TLK2 (Homo sapiens, UniProt Q86UE8)",100
"STK32A (Homo sapiens, UniProt Q8WU08)",100
"EPHA1 (Homo sapiens, UniProt P21709)",93
"BLK (Homo sapiens, UniProt P51451)",91
"Tyrosine-protein kinase ABL1, phosphorylated (ABL1, Homo sapiens, UniProt P00519, T315I)",82
"FGFR2 (Homo sapiens, UniProt P21802)",93
"GRK1 (Homo sapiens, UniProt Q15835)",95

# Set 2
# Target: DNA polymerase theta, ATPase domain (POLQ, Homo sapiens, UniProt O75417)
# UniProt O75417, sequence (whole entry, unmodified, looked up): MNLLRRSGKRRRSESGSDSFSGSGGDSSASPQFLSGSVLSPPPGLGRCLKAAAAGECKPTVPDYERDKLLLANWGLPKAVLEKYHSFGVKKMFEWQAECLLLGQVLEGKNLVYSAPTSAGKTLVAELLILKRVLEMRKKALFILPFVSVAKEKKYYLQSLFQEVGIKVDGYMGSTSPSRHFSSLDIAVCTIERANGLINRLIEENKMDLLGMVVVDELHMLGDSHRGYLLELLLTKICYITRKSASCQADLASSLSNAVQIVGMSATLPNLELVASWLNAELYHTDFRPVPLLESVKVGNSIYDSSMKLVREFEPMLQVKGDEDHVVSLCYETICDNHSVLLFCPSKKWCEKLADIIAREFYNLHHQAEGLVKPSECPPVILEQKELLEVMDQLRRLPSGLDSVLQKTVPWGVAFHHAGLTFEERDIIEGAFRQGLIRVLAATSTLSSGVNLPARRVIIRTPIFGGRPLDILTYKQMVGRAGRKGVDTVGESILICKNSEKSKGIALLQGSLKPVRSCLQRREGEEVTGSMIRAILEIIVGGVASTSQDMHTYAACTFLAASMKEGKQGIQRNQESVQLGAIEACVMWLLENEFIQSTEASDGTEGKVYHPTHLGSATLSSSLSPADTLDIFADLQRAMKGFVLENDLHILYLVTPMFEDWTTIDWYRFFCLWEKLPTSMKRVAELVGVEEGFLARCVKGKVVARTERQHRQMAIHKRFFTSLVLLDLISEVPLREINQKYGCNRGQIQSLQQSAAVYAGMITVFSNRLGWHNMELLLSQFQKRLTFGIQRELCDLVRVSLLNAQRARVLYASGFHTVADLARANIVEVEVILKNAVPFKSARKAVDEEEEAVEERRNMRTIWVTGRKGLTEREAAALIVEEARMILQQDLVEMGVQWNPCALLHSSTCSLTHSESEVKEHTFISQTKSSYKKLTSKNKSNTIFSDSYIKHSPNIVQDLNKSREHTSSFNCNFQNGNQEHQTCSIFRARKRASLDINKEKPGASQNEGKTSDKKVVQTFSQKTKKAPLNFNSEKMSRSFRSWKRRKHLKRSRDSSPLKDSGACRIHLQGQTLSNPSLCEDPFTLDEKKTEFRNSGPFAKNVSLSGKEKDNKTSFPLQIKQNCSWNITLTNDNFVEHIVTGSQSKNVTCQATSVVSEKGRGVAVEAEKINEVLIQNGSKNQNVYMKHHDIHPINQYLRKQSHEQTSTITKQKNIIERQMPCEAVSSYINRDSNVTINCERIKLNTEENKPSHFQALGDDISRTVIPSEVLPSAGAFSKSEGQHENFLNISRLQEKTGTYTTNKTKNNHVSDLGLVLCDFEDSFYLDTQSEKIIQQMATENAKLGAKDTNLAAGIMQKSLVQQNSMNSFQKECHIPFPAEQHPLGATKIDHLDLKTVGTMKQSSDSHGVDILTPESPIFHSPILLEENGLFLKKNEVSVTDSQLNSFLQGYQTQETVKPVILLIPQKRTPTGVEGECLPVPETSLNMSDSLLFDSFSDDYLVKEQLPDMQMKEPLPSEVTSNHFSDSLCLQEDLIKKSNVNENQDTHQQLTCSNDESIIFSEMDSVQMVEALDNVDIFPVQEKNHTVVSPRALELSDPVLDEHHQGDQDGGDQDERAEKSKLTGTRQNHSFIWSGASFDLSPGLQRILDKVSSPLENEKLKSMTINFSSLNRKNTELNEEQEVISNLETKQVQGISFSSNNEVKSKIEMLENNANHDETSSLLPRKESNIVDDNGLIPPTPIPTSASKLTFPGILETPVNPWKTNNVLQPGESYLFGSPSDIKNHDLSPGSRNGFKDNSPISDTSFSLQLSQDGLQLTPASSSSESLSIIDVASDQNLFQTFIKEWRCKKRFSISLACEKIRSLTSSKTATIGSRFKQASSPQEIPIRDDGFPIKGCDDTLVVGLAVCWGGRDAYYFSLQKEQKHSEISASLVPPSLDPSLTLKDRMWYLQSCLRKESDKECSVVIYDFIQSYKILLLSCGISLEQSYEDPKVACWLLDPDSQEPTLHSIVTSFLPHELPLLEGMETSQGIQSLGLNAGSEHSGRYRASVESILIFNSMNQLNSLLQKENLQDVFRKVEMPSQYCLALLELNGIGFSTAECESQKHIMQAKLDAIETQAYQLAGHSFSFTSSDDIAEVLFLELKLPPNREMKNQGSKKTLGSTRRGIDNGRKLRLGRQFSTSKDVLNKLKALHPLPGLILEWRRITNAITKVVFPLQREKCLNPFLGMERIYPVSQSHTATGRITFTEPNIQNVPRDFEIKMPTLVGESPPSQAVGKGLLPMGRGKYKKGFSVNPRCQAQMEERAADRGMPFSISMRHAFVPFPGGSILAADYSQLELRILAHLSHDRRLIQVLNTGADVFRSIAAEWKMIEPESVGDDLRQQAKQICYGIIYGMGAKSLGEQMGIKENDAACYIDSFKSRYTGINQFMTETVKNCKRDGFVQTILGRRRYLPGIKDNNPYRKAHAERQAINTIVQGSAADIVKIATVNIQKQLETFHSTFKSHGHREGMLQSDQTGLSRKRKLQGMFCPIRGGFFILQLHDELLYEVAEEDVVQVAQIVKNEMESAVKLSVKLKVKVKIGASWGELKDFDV
# Observed: enzyme activity
# Action: inhibitor
# Tested at: 77 µM
# Relative to: untreated
SMILES,remaining activity
CCOc1ccc2c(c1)C(C)=CC(C)(C)N2,101%
O=C1Nc2ccccc2/C1=C\c1c(Cl)[nH]c2ccccc12,104%
Nc1ccc(S(=O)(=O)Nc2ncccn2)cc1,92.7% and 99.2%
COC(=O)[C@H]1[C@H]2C[C@H]3c4[nH]c5ccccc5c4CCN3C[C@@H]2CC[C@@H]1O,109%
Cc1c(OCC(F)(F)F)ccnc1C[S+]([O-])c1nc2ccccc2[nH]1 (stereo not drawn),101%
CS(=O)(=O)c1ccc(-n2nc(C(F)(F)F)cc2-c2ccc(F)cc2)cc1,96%
CCOC(=O)c1ccc(OC(=O)CCCCCN=C(N)N)cc1,103%

# Set 3
# Target: Tyrosine-protein kinase JAK1 (JAK1, Homo sapiens, UniProt P23458)
# UniProt P23458, sequence (whole entry, looked up): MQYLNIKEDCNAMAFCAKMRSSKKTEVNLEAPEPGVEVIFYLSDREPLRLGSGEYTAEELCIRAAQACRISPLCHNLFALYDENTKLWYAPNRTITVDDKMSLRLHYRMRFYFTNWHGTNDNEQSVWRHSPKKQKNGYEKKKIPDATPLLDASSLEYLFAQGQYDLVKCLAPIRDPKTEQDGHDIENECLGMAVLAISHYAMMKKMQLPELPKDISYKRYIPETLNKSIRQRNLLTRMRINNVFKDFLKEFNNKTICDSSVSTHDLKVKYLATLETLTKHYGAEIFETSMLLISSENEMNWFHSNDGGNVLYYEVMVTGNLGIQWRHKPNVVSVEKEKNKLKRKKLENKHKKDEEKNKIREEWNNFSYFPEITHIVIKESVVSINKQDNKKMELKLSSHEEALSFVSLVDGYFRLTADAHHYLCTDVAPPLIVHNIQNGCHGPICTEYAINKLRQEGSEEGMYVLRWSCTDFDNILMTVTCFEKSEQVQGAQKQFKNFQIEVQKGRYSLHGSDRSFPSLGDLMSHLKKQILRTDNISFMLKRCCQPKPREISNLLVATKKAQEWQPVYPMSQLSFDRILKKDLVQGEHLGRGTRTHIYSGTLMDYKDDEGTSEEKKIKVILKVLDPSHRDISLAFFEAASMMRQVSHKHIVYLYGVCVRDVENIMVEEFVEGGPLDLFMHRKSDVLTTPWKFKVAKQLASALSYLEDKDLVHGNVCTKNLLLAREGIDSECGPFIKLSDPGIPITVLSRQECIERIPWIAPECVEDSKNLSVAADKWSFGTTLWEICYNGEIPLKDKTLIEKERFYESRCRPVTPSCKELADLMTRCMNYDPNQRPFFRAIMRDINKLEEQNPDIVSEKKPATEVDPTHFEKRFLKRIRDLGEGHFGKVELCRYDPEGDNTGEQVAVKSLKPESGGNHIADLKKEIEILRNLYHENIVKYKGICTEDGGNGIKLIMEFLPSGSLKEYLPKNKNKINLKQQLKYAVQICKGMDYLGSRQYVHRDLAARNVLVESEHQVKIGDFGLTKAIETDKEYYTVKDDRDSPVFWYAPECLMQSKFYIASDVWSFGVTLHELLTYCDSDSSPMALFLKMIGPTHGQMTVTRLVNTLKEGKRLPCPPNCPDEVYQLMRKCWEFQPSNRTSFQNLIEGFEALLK
# Observed: enzyme activity
# Action: inhibitor
# Tested at: 0.5 µM
# Relative to: control
SMILES,remaining activity
C#Cc1cccc(Nc2ncnc3cc(OCCOC)c(OCCOC)cc23)c1,91.2%
Nc1ccc2ncnc(NCCc3ccc(Oc4ccccc4)cc3)c2c1,94.6%
CN(C)c1ccc(C=C2C(=O)Nc3ccccc32)cc1,105%
O=C1NC(=O)C(c2cn(CCCO)c3ncccc23)=C1c1cnccn1,117%
Cn1sc(=O)n(Cc2ccccc2)c1=O,103%
Cc1cccc(-c2[nH]c(C(C)(C)C)nc2-c2ccc3c(c2)OCO3)n1,96.1%
COc1ccc(CNC(=O)Nc2ncc([N+](=O)[O-])s2)cc1,94.2%
O=C(CCCc1ccc(-c2ccccc2F)cc1)Nc1ccc(O)cc1,98.2%
NCCNc1ncc(C(N)=O)c(Nc2cccc(C(F)(F)F)c2)n1,96.9%
Cc1nc(-c2ccccc2)c(-c2ccncc2)o1,103%
COc1ccc(C(=O)Nc2sc3c(c2C(N)=O)CCCC3)cc1OC,104%
COc1cc2ncnc(Nc3ccc(Oc4ccccc4)cc3)c2cc1OC,105%
O=C1NC(=O)C(c2cn(CCCn3ccnc3)c3ccccc23)=C1Nc1ccccc1,82.1%
CO[C@H]1C[C@@H]2CC[C@@H](C)[C@@](O)(O2)C(=O)C(=O)N2CCCC[C@H]2C(=O)O[C@H]([C@H](C)C[C@@H]2CC[C@@H](O)[C@H](OC)C2)CC(=O)[C@H](C)/C=C(\C)[C@@H](O)[C@@H](OC)C(=O)[C@H](C)C[C@H](C)/C=C/C=C/C=C/1C,103%
COc1cc2nccc(Oc3ccc(NC(=S)NC(=O)c4ccccc4C)cc3)c2cc1OC,96.7%

# Set 4
# Host: mouse
# Sample: microsomes or S9
# Tested at: 2 µM
# Time: 0.5 h
SMILES,remaining compound [%]
Cc1[nH]c(=O)[nH]c(=O)c1S(=O)(=O)N1CCC(C(=O)NCCC(C)C)CC1,70
CN(C(=O)CN1CCC(NC(=O)C2CCCCC2)CC1)C1CCCCC1,0.555
CC(=O)NCCOc1c(C)cc(S(N)(=O)=O)cc1C,60.3
CCc1cc(=O)[nH]c(-n2nc(C)cc2NC(=O)c2c(-c3ccccc3Cl)noc2C)n1,> 100
COc1ccccc1Nc1cnnc2c(Cl)cccc12,14.7
CN(C)CCCNC(=O)c1cc(S(=O)(=O)N(C)C)c(Cl)cc1Cl,0.519
